Measured values of several laboratories.
Every numbered part comes from another study and shows a few of its results, in no order. Changes are numbered by the printed parent chain.
Chain of UniProt Q9UKS7 (whole entry, looked up): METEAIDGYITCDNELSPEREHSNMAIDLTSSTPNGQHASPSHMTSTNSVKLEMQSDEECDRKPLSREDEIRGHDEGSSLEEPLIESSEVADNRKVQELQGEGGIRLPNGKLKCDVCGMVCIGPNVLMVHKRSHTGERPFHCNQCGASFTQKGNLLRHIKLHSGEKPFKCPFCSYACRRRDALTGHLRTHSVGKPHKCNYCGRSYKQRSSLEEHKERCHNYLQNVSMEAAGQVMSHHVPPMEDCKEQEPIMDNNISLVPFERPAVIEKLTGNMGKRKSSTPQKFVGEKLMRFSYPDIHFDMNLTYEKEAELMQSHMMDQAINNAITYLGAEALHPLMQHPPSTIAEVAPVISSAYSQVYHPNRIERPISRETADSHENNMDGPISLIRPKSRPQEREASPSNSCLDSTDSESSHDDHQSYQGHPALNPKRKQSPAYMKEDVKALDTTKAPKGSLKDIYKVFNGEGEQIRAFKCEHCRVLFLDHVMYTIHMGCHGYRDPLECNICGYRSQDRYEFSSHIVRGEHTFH
Chain of UniProt Q96SW2 (whole entry, looked up): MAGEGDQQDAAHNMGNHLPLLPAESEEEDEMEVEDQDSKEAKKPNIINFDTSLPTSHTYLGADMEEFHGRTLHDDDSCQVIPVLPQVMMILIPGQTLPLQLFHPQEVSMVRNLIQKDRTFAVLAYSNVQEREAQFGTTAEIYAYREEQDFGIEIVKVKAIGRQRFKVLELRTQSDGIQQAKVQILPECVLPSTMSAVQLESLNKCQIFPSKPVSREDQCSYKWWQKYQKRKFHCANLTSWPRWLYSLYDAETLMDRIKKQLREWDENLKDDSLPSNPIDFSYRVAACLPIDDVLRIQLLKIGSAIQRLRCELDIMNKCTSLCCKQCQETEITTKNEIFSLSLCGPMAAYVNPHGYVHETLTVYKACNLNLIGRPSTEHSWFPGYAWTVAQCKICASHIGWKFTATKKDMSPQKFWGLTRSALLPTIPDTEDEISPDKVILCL

Study 1 — technique: protein-binding microarray; form: double-stranded DNA, one strand shown; matrix: in vitro; tested at: 0.8 µM; setting: whole 60-bp probe, no competitor; reading: higher = stronger binding; constant ends, left off below: … GTCTTGATTCGCTTGACGCTGCTG
Target: Centromere-binding protein 1, full length, N-terminal tag (CBF1, Saccharomyces cerevisiae, UniProt P17106, residues 1-351)
Chain of UniProt P17106 (whole entry, looked up): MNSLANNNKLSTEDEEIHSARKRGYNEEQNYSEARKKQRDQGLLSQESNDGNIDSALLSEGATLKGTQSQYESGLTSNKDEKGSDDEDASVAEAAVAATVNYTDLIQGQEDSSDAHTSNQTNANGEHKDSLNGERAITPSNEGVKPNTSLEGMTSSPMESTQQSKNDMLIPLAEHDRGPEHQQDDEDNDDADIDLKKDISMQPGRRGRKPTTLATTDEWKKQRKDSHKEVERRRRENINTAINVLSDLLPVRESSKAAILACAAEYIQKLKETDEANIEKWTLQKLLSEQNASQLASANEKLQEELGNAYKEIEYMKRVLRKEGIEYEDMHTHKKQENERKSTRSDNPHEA
Sequence | fluorescence intensity [a.u.]
GAATAGTTGCGGTAGAACGTGATGTTGATATAGTAG | 1420
GAACTCTCCCCCCCACACGTGATAGCCTTTCTTTAG | 3830
GAATTTCGGTGACATCAGTTGAAAGTAGCAGCGTAG | 542
GAAGTAAAAAAGGGTGTGGTGATGGTGAAGATGTAG | 558
CTATAGGTATACAGTCACGACTATAATATCATATTC | 749
CTAAATCGGACTTATCTGGTGATCGAAGAAACTTTC | 557
GAAATCGTTCATCTCCTCGTGTTTTGGGGAGGATAG | 580
CTACATTGAAATAATATCGTGATTATGGGCTGGTTC | 716

Study 2 — target: MAFK, bZIP domain (human); technique: DHFR protein complementation; matrix: yeast; relative to: wild-type JUN-FOS pair; reading: higher = stronger binding
Setting: single substitutions, most at no-binding floor
Starting sequence: JUN, bZIP domain (human); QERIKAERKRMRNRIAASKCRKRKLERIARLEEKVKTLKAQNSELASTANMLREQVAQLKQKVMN; partner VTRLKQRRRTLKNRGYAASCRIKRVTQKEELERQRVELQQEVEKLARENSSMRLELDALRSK
Change | binding fitness [natural log]
Q55P | -1.5
Q41G | -1.48
T48G | -1.5
L45K | -1.51
L31D | -1.53
L31V | -1.44
Q41E | -1.39
T37E | -1.36

Study 3 — target: CCNB3, cyclin fold, Cln2 fusion (human); technique: yeast growth competition, sequencing; matrix: yeast; setting: strong parent motif; relative to: not given; reading: higher = stronger binding
Starting sequence: viral docking peptide; TSVRRALFTGGSD; partner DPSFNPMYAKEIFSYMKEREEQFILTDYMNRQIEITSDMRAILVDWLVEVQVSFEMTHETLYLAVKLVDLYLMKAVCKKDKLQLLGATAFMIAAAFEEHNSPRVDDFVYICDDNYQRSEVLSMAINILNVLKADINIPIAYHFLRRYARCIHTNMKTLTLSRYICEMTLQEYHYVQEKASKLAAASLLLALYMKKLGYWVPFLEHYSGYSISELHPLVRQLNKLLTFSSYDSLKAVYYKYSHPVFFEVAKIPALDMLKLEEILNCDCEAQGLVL
Change | normalised enrichment score
TSVRRALWTGGSD [F8W] | 0.417
TSVRRALFEGGSD [T9E] | 1.19
TSVRRALFTGVSD [G11V] | 2.01
TSVRRALFTGPSD [G11P] | 2.45
TSVRRALFTEGSD [G10E] | 3.12
TSLRRALFTGGSD [V3L] | 0.423
TSVRGALFTGGSD [R5G] | 0.242
TSVTRALFTGGSD [R4T] | 0.234
TSVRRALFLGGSD [T9L] | 1.55
TEVRRALFTGGSD [S2E] | 1.61
TSVRRAFFTGGSD [L7F] | -0.0383
TSVRRNLFTGGSD [A6N] | 2.15
TSVRRALFTGDSD [G11D] | 2.43
TSVRRALFTMGSD [G10M] | 1.42
TSVRRAHFTGGSD [L7H] | -0.0198
TMVRRALFTGGSD [S2M] | 1.56
TSVRRALATGGSD [F8A] | 0.0436

Mixed results
Structure (SMILES) | target | assay | system | conditions | quantity | value
O=C1CCC(N2Cc3c(ccc4c3OCC43CCN(Cc4ccccn4)CC3)C2=O)C(=O)N1 (stereo not shown) | CRBN/Zinc finger protein Helios (Homo sapiens, UniProt Q96SW2+Q9UKS7) | degrader, HiBiT | HEK293 | 123.5 nM | protein remaining | 57.9%

Some of these lines once more (study 3):
Change | normalised enrichment score
TSVRRALWTGGSD [F8W] | 0.417
TSVRGALFTGGSD [R5G] | 0.242
